# Assay results pooled from the literature.
# Every numbered part comes from another study and shows a few of its results, in no order. Substitutions count along the parent as printed.

# Sample 1
# Target: Activin receptor type-1-like (ACVRL1, Homo sapiens, UniProt P37023)
# UniProt P37023, sequence (whole entry, looked up): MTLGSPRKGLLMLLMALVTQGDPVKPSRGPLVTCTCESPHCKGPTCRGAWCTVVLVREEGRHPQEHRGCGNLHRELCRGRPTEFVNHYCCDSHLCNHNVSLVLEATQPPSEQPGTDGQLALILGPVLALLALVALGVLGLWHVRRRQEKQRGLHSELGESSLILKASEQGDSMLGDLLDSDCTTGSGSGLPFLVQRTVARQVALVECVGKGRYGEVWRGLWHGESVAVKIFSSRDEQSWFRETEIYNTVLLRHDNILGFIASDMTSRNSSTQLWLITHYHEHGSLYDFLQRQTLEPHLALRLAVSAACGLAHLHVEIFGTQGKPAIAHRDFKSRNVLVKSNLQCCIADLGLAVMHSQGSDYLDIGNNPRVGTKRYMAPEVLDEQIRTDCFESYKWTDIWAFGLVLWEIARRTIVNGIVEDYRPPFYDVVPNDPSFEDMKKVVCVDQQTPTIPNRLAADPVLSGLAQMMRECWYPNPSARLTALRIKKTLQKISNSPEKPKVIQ
# Effect on: enzyme activity
# Action: inhibitor
# Concentration: 0.5 µM
# Baseline: control
SMILES,remaining activity
CCCC(=O)Oc1ccc2[nH]c(C(=O)c3cc4ccccc4[nH]3)cc2c1,90.9%
CC[n+]1c(/C=C/N(C)c2ccccc2)n(-c2ccccc2)c2ccc(-c3nc4ccccc4s3)cc21,110%
O=C1Cc2c([nH]c3ccc([N+](=O)[O-])cc23)-c2ccccc2N1,76.2%
Cc1ccc(NC2=CC(=O)c3sc(C)nc3C2=O)cc1,101%
CC(=O)c1ccc(N2CCOCC2)cc1O,103%
Cc1cncc2cccc(S(=O)(=O)N3CCCN(C(=O)CN)C[C@@H]3C)c12,99.2%
CCc1[nH]c(-c2ccc(OC)cc2)nc1-c1ccncc1,101%
CC#CC(=O)Nc1cc2c(Nc3ccc(F)c(Cl)c3)ncnc2cn1,101%
Nc1nccc(-c2c(-c3ccc(F)cc3)ncn2C2CCNCC2)n1,95.6%
Nc1nc(Nc2ccc(S(N)(=O)=O)cc2)nn1C(=O)c1c(F)cccc1F,88.5%
CSc1nc(-c2ccnc(N[C@@H](C)c3ccccc3)c2)c(-c2ccc(F)cc2)[nH]1 (racemic),92.2%

# Sample 2
# Cell line: normal adjacent epithelium patient-derived organoids
# Technique: CellTiter-Glo
# Concentration: 1 µM
# Setting: mean of five organoid lines
# Baseline: DMSO
Compound,viability
CNCc1ccccc1-c1csc([C@@H](C)Nc2nc(C)nc3cc(OC)c(OC)cc23)c1,71.1%
CCc1ccccc1C(=O)Nc1n[nH]c2c(C)c(F)c(C3C(C#N)=C(C)N(C)C(C)=C3C#N)cc12,82.5%
CCOCCn1cc(C(=O)Nc2ccc(-n3nc(-c4cccnc4)cc3C(F)(F)F)cn2)ccc1=O,105%
CN1CCN(C(=O)C(C)(C)c2ccc(C(=O)Nc3cn4cc(-c5ccncc5)ccc4n3)cc2)CC1,49.7%

# Sample 3
# Target: ABI1, truncated, D143A, DHFR fusion (Arabidopsis thaliana)
# Technique: DHFR PCA, deep sequencing
# Medium: yeast
# Setting: methotrexate growth selection, single substitutions
# With: (+)-ABA 17 µM
# Baseline: wild-type fitted maximum
# Direction: higher = stronger binding
# Starting sequence: PYL1, truncated, DHFR fusion (Arabidopsis thaliana); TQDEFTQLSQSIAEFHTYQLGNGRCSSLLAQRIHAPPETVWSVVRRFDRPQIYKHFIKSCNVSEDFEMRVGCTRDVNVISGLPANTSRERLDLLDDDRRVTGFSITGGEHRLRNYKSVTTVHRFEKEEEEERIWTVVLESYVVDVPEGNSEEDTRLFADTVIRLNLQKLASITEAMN; partner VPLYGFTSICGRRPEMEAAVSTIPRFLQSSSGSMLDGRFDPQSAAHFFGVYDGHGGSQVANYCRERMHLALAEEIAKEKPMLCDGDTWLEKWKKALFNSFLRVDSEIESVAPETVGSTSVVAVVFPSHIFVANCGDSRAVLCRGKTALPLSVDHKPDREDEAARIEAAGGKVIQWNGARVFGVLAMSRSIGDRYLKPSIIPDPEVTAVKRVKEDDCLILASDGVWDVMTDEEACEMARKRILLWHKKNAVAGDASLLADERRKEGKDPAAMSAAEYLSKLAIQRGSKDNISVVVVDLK
Substitution,relative binding score [%]
D144T,48.3
L166N,2.96
N85R,89.6
T106V,98.7
G81C,25.3
L169T,-13.2
R132A,97.6
G102N,-3.71

# Sample 4
# Partner: ARF6 790-935 (Arabidopsis thaliana, UniProt Q9ZTX8)
# Technique: two-hybrid
# Baseline: out of 4 tests
# Direction: higher = firmer interaction
# B1: IAA32 (Arabidopsis thaliana, UniProt Q8RYC6); chain MDPNTPADFFKGSSKFHTYYSQTKKGGGVIDLGLSLRTIQHETYLPPARMIGLDGYGELIDWSQPSYNSITQLKSEDTGHQRLAQGYYNNEGESRGKYAYVKVNLDGLVVGRKVCLVDQGAYATLALQLNDMFGMQTVSGLRLFQTESEFSLVYRDREGIWRNVGDVPWKEFVESVDRMRIARRNDALLPF
# B2: IAA29 (Arabidopsis thaliana, UniProt Q93WC4); chain MELDLGLSLSPHKSSKLGFNFDLNKHCAIEGAASCLGTEKLRFEATFGLGNVEENCYMPKQRLFALNGQPNEEDEDPLESESSIVYDDEEENSEVVGWPPVKTCMIKYGSYHHRHIRNHHHCPYHHRGRRITAMNNNISNPTTATVGSSSSSSISSRSSMYVKVKMDGVAIARKVDIKLFNSYESLTNSLITMFTEYEDCDREDTNYTFTFQGKEGDWLLRGDVTWKIFAESVHRISIIRDRPCAYTRCLF
# B3: IAA34 (Arabidopsis thaliana, UniProt Q9C5X0); chain MYCSDPPHPLHLVASDKQQKDHKLILSWKKPTMDSDPLGVFPNSPKYHPYYSQTTEFGGVIDLGLSLRTIQHEIYHSSGQRYCSNEGYRRKWGYVKVTMDGLVVGRKVCVLDHGSYSTLAHQLEDMFGMQSVSGLRLFQMESEFCLVYRDEEGLWRNAGDVPWNEFIESVERLRITRRNDAVLPF
# B4: ARF4 660-788 (Arabidopsis thaliana, UniProt Q9ZTX9); chain QSSSKRICTKVHKQGSQVGRAIDLSRLNGYDDLLMELERLFNMEGLLRDPEKGWRILYTDSENDMMVVGDDPWHDFCNVVWKIHLYTKEEVENANDDNKSCLEQAALMMEASKSSSVSQPDSSPTITRV
# B5: ARF1 538-665 (Arabidopsis thaliana, UniProt Q8L7G0); chain SRQIRSCTKVHMQGSAVGRAIDLTRSECYEDLFKKLEEMFDIKGELLESTKKWQVVYTDDEDDMMMVGDDPWNEFCGMVRKIFIYTPEEVKKLSPKNKLAVNARMQLKADAEENGNTEGRSSSMAGSR
# B6: IAA33 (Arabidopsis thaliana, UniProt Q9FKM7); chain MNSFEPQSQDSLQRRFHQDNSTTQQPRDTTTPFIPKPASKNHNNSNSSSGAAGRSFQGFGLNVEDDLVSSVVPPVTVVLEGRSICQRISLDKHGSYQSLASALRQMFVDGADSTDDLDLSNAIPGHLIAYEDMENDLLLAGDLTWKDFVRVAKRIRILPVKGNTRQVKRNE
# B7: ARF5 788-902 (Arabidopsis thaliana, UniProt P93024); chain ATPRVRTYTKVQKTGSVGRSIDVTSFKDYEELKSAIECMFGLEGLLTHPQSSGWKLVYVDYESDVLLVGDDPWEEFVGCVRCIRILSPTEVQQMSEEGMKLLNSAGINDLKTSVS
# B8: ARF2 727-859 (Arabidopsis thaliana, UniProt Q94JM3); chain TKTNSSRSCTKVHKQGIALGRSVDLSKFQNYEELVAELDRLFEFNGELMAPKKDWLIVYTDEENDMMLVGDDPWQEFCCMVRKIFIYTKEEVRKMNPGTLSCRSEEEAVVGEGSDAKDAKSASNPSLSSAGNS
# Target sequence (chain): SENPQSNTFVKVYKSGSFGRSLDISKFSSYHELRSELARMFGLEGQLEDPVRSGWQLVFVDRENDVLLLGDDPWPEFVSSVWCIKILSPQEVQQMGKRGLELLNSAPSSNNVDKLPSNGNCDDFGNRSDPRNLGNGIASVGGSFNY
Sequence,positive tests
B1 (IAA32),3
B2 (IAA29),2
B3 (IAA34),3
B4 (ARF4 660-788),0
B5 (ARF1 538-665),0
B6 (IAA33),3
B7 (ARF5 788-902),1
B8 (ARF2 727-859),1

# A few entries again (sample 1):
SMILES,remaining activity
CC[n+]1c(/C=C/N(C)c2ccccc2)n(-c2ccccc2)c2ccc(-c3nc4ccccc4s3)cc21,110%
O=C1Cc2c([nH]c3ccc([N+](=O)[O-])cc23)-c2ccccc2N1,76.2%
Cc1ccc(NC2=CC(=O)c3sc(C)nc3C2=O)cc1,101%
CC(=O)c1ccc(N2CCOCC2)cc1O,103%
Cc1cncc2cccc(S(=O)(=O)N3CCCN(C(=O)CN)C[C@@H]3C)c12,99.2%
